Results of several laboratories.
Numbered parts are unrelated; each lists some results of a single study. Changes are numbered by the printed parent chain.
Chain of UniProt P49427 (whole entry, looked up): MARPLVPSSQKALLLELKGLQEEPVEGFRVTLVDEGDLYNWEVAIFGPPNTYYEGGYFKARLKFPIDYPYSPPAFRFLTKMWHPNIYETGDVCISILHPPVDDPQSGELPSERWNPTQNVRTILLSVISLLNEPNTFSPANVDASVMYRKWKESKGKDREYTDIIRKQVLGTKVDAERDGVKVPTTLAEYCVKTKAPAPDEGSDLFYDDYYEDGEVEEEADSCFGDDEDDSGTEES
Chain of UniProt Q13404 (whole entry, looked up): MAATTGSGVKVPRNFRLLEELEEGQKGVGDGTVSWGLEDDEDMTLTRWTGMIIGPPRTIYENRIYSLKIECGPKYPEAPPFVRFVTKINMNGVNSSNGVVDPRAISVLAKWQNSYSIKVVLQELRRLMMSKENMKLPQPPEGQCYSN
Chain of UniProt O15075 (whole entry, looked up): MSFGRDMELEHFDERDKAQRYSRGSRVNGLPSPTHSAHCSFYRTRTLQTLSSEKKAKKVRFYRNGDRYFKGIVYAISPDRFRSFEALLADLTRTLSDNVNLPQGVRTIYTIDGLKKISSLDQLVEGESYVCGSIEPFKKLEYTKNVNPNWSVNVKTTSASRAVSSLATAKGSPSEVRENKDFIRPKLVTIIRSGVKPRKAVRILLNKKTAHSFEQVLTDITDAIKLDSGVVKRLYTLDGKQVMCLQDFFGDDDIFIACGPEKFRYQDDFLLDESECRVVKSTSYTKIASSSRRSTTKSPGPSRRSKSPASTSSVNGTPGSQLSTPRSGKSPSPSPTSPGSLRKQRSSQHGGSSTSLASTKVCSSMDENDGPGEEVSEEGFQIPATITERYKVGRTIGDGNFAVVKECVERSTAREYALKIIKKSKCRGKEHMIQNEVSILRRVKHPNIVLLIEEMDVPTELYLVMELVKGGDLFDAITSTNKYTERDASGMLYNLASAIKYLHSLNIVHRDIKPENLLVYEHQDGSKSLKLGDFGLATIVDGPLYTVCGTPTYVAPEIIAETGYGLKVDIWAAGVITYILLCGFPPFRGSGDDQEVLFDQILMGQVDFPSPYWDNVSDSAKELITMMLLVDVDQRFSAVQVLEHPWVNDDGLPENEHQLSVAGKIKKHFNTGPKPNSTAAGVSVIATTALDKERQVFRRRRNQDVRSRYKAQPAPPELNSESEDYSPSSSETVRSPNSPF
Chain of UniProt P61088 (whole entry, looked up): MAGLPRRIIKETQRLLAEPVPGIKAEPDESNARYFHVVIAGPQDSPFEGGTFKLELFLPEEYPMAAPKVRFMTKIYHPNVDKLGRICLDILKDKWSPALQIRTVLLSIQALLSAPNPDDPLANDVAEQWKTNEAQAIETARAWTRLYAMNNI
Chain of UniProt P51965 (whole entry, looked up): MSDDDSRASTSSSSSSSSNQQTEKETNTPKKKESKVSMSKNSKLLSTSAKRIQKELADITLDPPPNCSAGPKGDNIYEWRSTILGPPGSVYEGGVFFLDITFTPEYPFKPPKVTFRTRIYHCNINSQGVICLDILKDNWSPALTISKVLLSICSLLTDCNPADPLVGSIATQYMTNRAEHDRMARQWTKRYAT
Chain of UniProt P62256 (whole entry, looked up): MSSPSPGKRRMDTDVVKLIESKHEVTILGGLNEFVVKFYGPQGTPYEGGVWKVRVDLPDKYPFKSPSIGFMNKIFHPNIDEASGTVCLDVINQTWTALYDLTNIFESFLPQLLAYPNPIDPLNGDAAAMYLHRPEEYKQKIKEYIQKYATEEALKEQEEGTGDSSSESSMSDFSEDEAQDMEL
Chain of UniProt Q5VVX9 (whole entry, looked up): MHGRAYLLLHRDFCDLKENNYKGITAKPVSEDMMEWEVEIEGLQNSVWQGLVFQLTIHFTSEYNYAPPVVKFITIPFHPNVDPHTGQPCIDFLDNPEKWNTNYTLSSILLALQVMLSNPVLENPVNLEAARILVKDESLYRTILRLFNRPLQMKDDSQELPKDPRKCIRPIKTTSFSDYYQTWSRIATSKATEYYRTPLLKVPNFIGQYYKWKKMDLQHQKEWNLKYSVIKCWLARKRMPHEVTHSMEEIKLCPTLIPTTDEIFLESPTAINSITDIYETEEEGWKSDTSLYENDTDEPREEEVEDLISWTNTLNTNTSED

Study 1 — method: yeast two-hybrid; medium: yeast; notes: mostly zero background; relative to: not given; reading: higher = stronger interaction
Molecule: KLWDINAHITCRLCSGYLIDATTVTECLHTFCRSCLVKYLEENNTCPTCRIVIHQSHPLQ (PCGF3 RING domain (UniProt Q3KNV8))
| target | lacZ reporter activity |
| --- | --- |
| UBE2V1 UBC core domain (UniProt Q13404) | 0 |
| UBE2N UBC core domain (UniProt P61088) | 0 |
| UBE2E1 UBC core domain (UniProt P51965) | 0 |
| UBE2H UBC core domain (UniProt P62256) | 0 |
| CDC34 UBC core domain (UniProt P49427) | 0 |
| UBE2U UBC core domain (UniProt Q5VVX9) | 0 |

Study 2 — target: CCNB2, cyclin fold, Cln2 fusion (human); method: yeast growth competition, sequencing; medium: yeast; notes: weak parent motif; relative to: not given; reading: higher = stronger binding
Starting sequence: SAMHD1 docking peptide (human); ASKSRVQLFKDDP; partner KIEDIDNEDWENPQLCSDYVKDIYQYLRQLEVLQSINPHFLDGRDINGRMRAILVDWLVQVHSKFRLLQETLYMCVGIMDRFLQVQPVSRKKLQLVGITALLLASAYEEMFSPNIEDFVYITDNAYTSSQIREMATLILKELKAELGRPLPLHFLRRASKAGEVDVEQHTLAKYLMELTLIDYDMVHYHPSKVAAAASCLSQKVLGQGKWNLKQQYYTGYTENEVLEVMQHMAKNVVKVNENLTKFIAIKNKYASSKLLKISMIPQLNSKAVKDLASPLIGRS
| Variant | normalised enrichment score |
| --- | --- |
| ASKSRVILFKDDP [Q7I] | 0.122 |
| ASKSRVQLFKDQP [D12Q] | -0.138 |
| ASHSRVQLFKDDP [K3H] | 0.437 |
| ASQSRVQLFKDDP [K3Q] | -0.0743 |
| ASKSRVQLFHDDP [K10H] | 0.00655 |
| ASASRVQLFKDDP [K3A] | 0.165 |
| AVKSRVQLFKDDP [S2V] | 0.549 |
| ASKSRVQSFKDDP [L8S] | 0.17 |

Study 3 — method: RNA Bind-n-Seq; molecule type: RNA; medium: in vitro; concentration: 365 nM; relative to: no-protein control; reading: higher = stronger binding
Target: RNA binding protein fox-1 homolog 2, RRM domain, GST-SBP tag (RBFOX2, Homo sapiens, UniProt O43251-10, residues 100-194)
Notes: natural RNA segment, single round, ends assumed
Construct (chain): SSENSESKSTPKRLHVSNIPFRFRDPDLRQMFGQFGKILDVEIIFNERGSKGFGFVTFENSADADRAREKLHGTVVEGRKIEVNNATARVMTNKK
| Strand | RBNS enrichment (R) |
| --- | --- |
| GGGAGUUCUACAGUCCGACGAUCCUCAGCCUUCUUGACUAGGUGGCCAGCCUGUUUCACUGCAGCCUCAGACCUUGCCAGACAACCGAGUCCUGCAGGAUUCUGACUCAGAAGAUAAUCACAGACGUUAGUUAUGGAAUUCUCGGGUGCCAA | 0.274 |
| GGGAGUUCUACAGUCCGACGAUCGCCGCCCUCGGGCGCACGGCCUGCCUGUCGCAUGUUUGUGUCUGCCUCGUCCCCUCCCCUGGUGCCUGUGUCUGCAGAAAAACAAGACCAGAUGUGAUUUGUUUUUAAAAUGGAAUUCUCGGGUGCCAA | 1.52 |
| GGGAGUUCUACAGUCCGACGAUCCUAAAGCCAUUGGCUGUAAUGAGUGUUACUGUGUGAGGCUUUGUGUAUGAGAUCUGUGCUGUAAGGCUCCCAGUGUUCCUUCAGCAUUAAUGCUUUCCCACCUGCUCCAAUGGAAUUCUCGGGUGCCAA | 0.886 |
| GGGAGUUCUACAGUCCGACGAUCACUGGCAGAGCACAGCCCACGGGGAUCACAGCGUUUCAGGAACGUUGCCACACCAAUCAGAGAGCCUAGAACAUCCCUGGGCAAGUGGAUGGCCCAGCAGGCAGGCACUGUGGAAUUCUCGGGUGCCAA | 0.675 |
| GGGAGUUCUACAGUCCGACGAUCCACGGUAGGAACAUAGCGUGUUUAUAUUUUAUGGCCAAACUAUUUUGAAUUUUGUUGUCCGGCCCUCAGUGCCCUGCCCUCUCCCUUACCAGGACCACAGCUCUGUUCCUUGGAAUUCUCGGGUGCCAA | 0.506 |
| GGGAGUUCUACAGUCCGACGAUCAGUCAGCCUUUAUUAGCACCAAAGACUUUAUGAAGAUCCCACACACAGACACACAUCCCUUCCCGCCUCCCCCCUGCCUUCAGUAGGAUCUGGCUCCGUGGCUGGAGGACUGGAAUUCUCGGGUGCCAA | 0.515 |
| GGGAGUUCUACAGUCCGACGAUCGGAGGUUCCAGAAUGAGUUCUUCCUGACAGGUUGUCUUCACUGGGAGCGUGGGGCCCCCAGGCCCCACCAGCACCGUCCUCCCCUAAUGAGGGGCCCUGCCGAGGCAUCAUGGAAUUCUCGGGUGCCAA | 0.918 |
| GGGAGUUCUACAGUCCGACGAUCAGCGACCCGGGCGCCAGCCCAGGUCACCGAGCCCUACUGGCGCCGAGUGGGGCGCGUUUGUUCCUCACCCACGCGCGUGGGGAUCCCCUCGCCACAGGGAAGCACAAGAAUGGAAUUCUCGGGUGCCAA | 0.261 |

Other studies, line by line
| SMILES | target | test | setting | endpoint | value |
| --- | --- | --- | --- | --- | --- |
| C[C@H](c1ccnc(Nc2nc3ccc(-c4cc(N(C)C)ncn4)cc3[nH]2)c1)N1CCN(C(=O)CC(F)(F)F)CC1 | Serine/threonine-protein kinase DCLK1 (DCLK1, Homo sapiens, UniProt O15075) | cell-free assay, competition with immobilised ligand | 0.1 µM | remaining binding | 96% |

For quick reference, copied from above (study 2):
| Variant | normalised enrichment score |
| --- | --- |
| ASKSRVQSFKDDP [L8S] | 0.17 |
| ASASRVQLFKDDP [K3A] | 0.165 |
